{"data": "Measurements pooled from the literature", "TDP1": "Tyrosyl-DNA phosphodiesterase 1 (TDP1, Homo sapiens, UniProt Q9NUW8)", "note": "Each line is one published result; not all experiments were run side by side. ± marks the error that the study gave.", "chain of UniProt Q9NUW8 (whole entry, looked up)": "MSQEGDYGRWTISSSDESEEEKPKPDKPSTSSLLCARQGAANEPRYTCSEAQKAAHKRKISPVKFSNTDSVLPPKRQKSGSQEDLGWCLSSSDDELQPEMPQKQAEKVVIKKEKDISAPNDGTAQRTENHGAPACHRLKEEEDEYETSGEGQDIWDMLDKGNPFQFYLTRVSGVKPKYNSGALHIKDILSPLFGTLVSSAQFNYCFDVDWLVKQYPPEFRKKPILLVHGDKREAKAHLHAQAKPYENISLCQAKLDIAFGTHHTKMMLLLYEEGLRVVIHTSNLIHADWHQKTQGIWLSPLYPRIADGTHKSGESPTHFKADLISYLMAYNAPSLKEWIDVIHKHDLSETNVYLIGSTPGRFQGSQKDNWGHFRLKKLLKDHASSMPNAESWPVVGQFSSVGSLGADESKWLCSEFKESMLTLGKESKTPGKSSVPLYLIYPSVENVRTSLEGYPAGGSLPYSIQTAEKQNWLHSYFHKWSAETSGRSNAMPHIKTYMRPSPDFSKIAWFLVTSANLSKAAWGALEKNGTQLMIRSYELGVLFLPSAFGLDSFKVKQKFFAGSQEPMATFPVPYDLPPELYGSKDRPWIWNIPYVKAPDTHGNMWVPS"}
{"SMILES": "C=C(NC(=O)c1csc(-c2nc3c(cc2O)-c2nc(cs2)C(=O)NC(C(C)O)C(=O)NC(=C(C)OC)c2nc(cs2)C(=O)NC2c4nc(cs4)C(=O)NC(COC(=O)c4c5c6c(cccc6n4O)COC(=O)C(OC4CC(C)(O)C(N(C)C)C(C)O4)C2OC5)c2nc-3cs2)n1)C(N)=O (centres unmarked)", "tested on": "Streptococcus pneumoniae", "test system": "-25, immunocompromised mice, lung", "setting": "4 mg/kg/day once daily, 24 h post-dose", "quantity": "lung bacterial load", "value": "5.75 log10 CFU/lung"}
{"SMILES": "Cn1cc(C=NOCc2ccc(-c3nc4cc(-c5ccccc5)ccn4c3Nc3ccc(C(=O)O)cc3)cc2)c(-c2ccc3c(c2)OCCCO3)n1 (mixture of isomers)", "tested on": "TDP1", "assay": "enzyme activity, inhibitor", "setting": "100 µM, unpurified compound", "quantity": "inhibition", "value": "81.2%"}
{"SMILES": "COc1cc(O)ccc1CCC(c1ccc(O)cc1)c1cc2c(c(C)c1O)OC(c1ccc(O)cc1)CC2 (mixture of isomers)", "test system": "human blood", "setting": "1 µM, together with: A23187", "quantity": "12-HETE level", "value": "6710 ± 1710 pg/mL"}
{"SMILES": "COC1CN([C@H]2CC[C@H]([C@@]3(C)Oc4c(Cl)cc(C(=O)NCc5c(SC)cc(C)[nH]c5=O)c(C)c4O3)CC2)C1", "assay": "RNA-seq, item: RTN1", "test system": "human, whole blood", "setting": "dose not given, 24 h", "scale": "reference: pretreatment baseline", "quantity": "log2 fold change", "value": 1.8}
{"SMILES": "CNS(=O)(=O)Nc1nccc(Cc2c(C)c3ccc(Oc4ncccc4F)cc3oc2=O)c1F", "tested on": "RKN", "assay": "cell viability", "setting": "7 days", "quantity": "IC50", "value": "177 nM"}
{"SMILES": "Cc1ncsc1-c1ccc(C(C)NC(=O)C2CC(O)CN2C(=O)C(NC(=O)CCCCCCCCCCN2CCCC(Nc3ncc(Cl)c(Nc4ccccc4S(=O)(=O)C(C)C)n3)C2)C(C)(C)C)cc1 (centres unmarked)", "tested on": "22Rv1", "assay": "RNA-seq, item: PPP1R13L mRNA", "setting": "concentration not given", "scale": "reference: DMSO", "quantity": "log2 fold change", "value": -1.09}
{"SMILES": "C=CC(=O)Nc1cccc(Cn2ncc3cnc(Nc4cnn(CCOC)c4)nc32)c1", "tested on": "ZAP70 human", "assay": "binding, KINOMEscan", "setting": "100 nM", "scale": "lower = stronger binding", "quantity": "percent of control", "value": "54%"}
{"SMILES": "O=C(O)c1ccc(Nc2c(-c3ccc(CON=Cc4ccc(-c5nc6ccccc6s5)o4)cc3)nc3cc(-c4ccccc4)ccn23)cc1", "tested on": "TDP1", "assay": "enzyme activity, inhibitor", "setting": "100 µM, unpurified compound", "quantity": "inhibition", "value": "33.2%"}
{"SMILES": "CCN(CC)CC(=O)Nc1cccc(-n2cc(-c3ccc4ccc(-c5cn(-c6cccc(NC(=O)CN(CC)CC)c6)nn5)cc4c3)nn2)c1", "tested on": "RCC4", "assay": "PCR angiogenesis array, item: CCL11", "setting": "5 x IC50, 6 h, normoxia", "scale": "reference: untreated", "quantity": "fold regulation", "value": 1.38}
{"SMILES": "CN1CCCNC(=O)c2cccc(c2)C(=O)NCCCN(C)CCCNc2cccc3c2C(=O)c2cccc(c2C3=O)NCCC1", "tested on": "SAS", "assay": "RNA-Seq, item: RSRC2 mRNA", "setting": "1 µM, 6 h", "scale": "reference: untreated cells", "quantity": "log2 fold change", "value": 0.476}
{"SMILES": "C/C=C(/C)C(=O)O[C@@H]1C=C(C)CC[C@]2(O)[C@@H](C(C)C)CC(=O)[C@]12C", "tested on": "Helicobacter pylori", "assay": "microbial growth, broth dilution", "setting": "15.63 µg/mL", "quantity": "inhibition", "value": "0%"}
{"SMILES": "c1ccc(-c2n[nH]cc2-c2ccnc3ccccc23)nc1", "tested on": "NPR1 (Candida albicans)", "assay": "kinase binding, MIB/MS competition", "test system": "Candida albicans lysate", "setting": "1 µM", "scale": "reference: DMSO", "quantity": "log2 fold change", "value": 0.08}
{"SMILES": "CO[C@@H]1OC[C@@H](O)[C@H](O)[C@H]1O", "tested on": "Helicobacter pylori", "assay": "microbial growth, broth dilution", "setting": "62.5 µg/mL", "quantity": "inhibition", "value": "11.7%"}
{"SMILES": "Nc1ncc(-c2cc(-c3cnn(CC(F)(F)F)c3)ncc2F)nc1C(=O)NC1CNCC(F)C1 (centres unmarked)", "tested on": "PHKG1", "assay": "KINOMEscan", "setting": "1 µM", "scale": "reference: DMSO control", "quantity": "remaining binding", "value": "82%"}
{"SMILES": "CC=C(C)C(=O)OC1CC2C(C=C(C)C3C(OC(C)=O)CC(=O)C13C)OC(=O)C2C (centres unmarked)", "tested on": "Helicobacter pylori", "assay": "microbial growth, broth dilution", "setting": "15.63 µg/mL", "quantity": "inhibition", "value": "0%"}
{"SMILES": "Cn1ncc2cc(-c3cncc(Cl)c3N3CCC4(CCNC4=O)CC3)ccc21", "tested on": "LS174T", "assay": "gene expression, microarray, item: FAM65C mRNA", "setting": "concentration not given, 4 h", "scale": "reference: untreated cells", "quantity": "log2 fold change", "value": -2.88}
{"SMILES": "C=CC(=O)N1[C@@H](c2ccc3c(c2)OCO3)c2[nH]c3ccccc3c2C[C@H]1C(=O)N1CCN(C)CC1", "tested on": "human cyclin E1 wild type-3xFLAG:CDK2", "assay": "co-IP with TMT proteomics, item: RPS5", "setting": "concentration not given, P46782", "scale": "reference: wild type DMSO", "quantity": "relative co-enrichment", "value": "105%"}
